# Measured values of several laboratories.
# A part holds a random share of what one study measured.

# Study 1
# Target: Interferon regulatory factor 5, full length, phosphomimetic (IRF5, Homo sapiens, UniProt Q13568-2, residues 1-514, K96S/S451D/S453D/S456D/S462D)
# Method: protein-binding microarray
# Form: double-stranded DNA, one strand shown
# Medium: in vitro
# Concentration: 250 nM
# Notes: 60-bp whole probe
# With: salmon DNA 0.4 mg/ml
# Relative to: random background probes
# Reading: higher = stronger binding
Strand,log fluorescence [z-score]
GCCTAGCACTCAGGTATCGGGACTGGGTTAGTGCTAGTCTTGATTCGCTTGACGCTGCTG,1.5
GCCTAGCACTAAGGTTTCGGGACTGGGTTAGTGCTAGTCTTGATTCGCTTGACGCTGCTG,3.89
GCCTAGCACTTAGCTCTCGGTATCGGTTAGTGCTAGGTCTTGATTCGCTTGACGCTGCTG,5.57
GCCTAGCACGACGGTTACCTTCTCCTGACGTGCTAGGTCTTGATTCGCTTGACGCTGCTG,0.314

# Study 2
# Target: Phosphate system positive regulatory protein PHO4, full length, GST-tagged (PHO4, Saccharomyces cerevisiae, UniProt P07270, residues 1-312)
# Method: competition protein-binding microarray
# Form: double-stranded DNA, one strand shown
# Medium: in vitro
# Concentration: 2 µM
# Notes: whole 60-bp probe, lowest competitor level
# With: Cbf1 competitor, 0.05 µM
# Reading: higher = stronger binding
# All sequences stand within: … GTCTTGATTCGCTTGACGCTGCTG
# Target sequence (chain): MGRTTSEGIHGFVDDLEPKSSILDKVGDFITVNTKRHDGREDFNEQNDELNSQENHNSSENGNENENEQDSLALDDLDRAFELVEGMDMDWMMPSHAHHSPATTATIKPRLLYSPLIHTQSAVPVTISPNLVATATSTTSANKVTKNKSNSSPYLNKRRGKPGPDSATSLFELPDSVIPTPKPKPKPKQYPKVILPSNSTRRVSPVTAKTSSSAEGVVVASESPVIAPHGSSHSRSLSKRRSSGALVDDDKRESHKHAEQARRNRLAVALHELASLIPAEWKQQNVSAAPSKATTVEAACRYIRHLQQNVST
Strand,fluorescence intensity
TGCGCAACAACTTTTCACGTGCCGTTATGTCTAGAA,14400 a.u.
CAACTGATATATATACACGTGAAGCAAAAAAGGCAT,14200 a.u.
CGGGGTTAAGTTTGCCTGGTGGGTGGCTTGCAGCAG,3970 a.u.
TCTTTTTTTTATTTGCACGTGCATCGAGGGGATCGA,17600 a.u.
TCGCGCACTACTTTTTTCGTGGGTAACTTAGGTGAA,4690 a.u.
TGCAGTCTAAAAACACACGTGTAGGTTTTTTTCCGC,15600 a.u.

# Study 3
# Target: Histone acetyltransferase KAT6A, winged helix 1, GST fusion (KAT6A, Homo sapiens, UniProt Q92794, residues 1-85)
# Method: protein binding microarray
# Form: double-stranded DNA, one strand shown
# Medium: in vitro
# Concentration: not given
# Notes: 8-mer, flanks averaged, mean of 2 arrays, mostly near background
# Relative to: not given
# Reading: higher = stronger binding
# Target sequence (chain): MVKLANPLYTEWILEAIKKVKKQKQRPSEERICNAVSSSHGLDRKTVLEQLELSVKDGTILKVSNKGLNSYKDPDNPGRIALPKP
Strand,E-score
ATGTTGCA,-0.25
CTCGGCCA,-0.021
GCCGGTAC,0.335
CGGCTTAG,0.251
ACCTCGAG,-0.112
CCTCAGGA,-0.0513

# Single results of other studies
Substance,target,assay,system,conditions,scale,quantity,result
"PhoQ, residues 284 288 289 292 302 303 SCKMEA","PhoP, residues 12 14 15 18 19 LHTVM (Escherichia coli, UniProt P23836)","Sort-seq, item: YFP reporter",E. coli,"PhoQ-PhoP variant library, with: 10 µM Mg2+","relative to: high Mg2+ state, higher = stronger signaling",fold induction,18.5

# For quick reference, copied from above (study 2):
Strand,fluorescence intensity
TCGCGCACTACTTTTTTCGTGGGTAACTTAGGTGAA,4690 a.u.
